Measured values gathered from unrelated publications.
Every numbered part comes from another study and shows a few of its results, in no order. Positions count from the first letter of the parent shown.

Sample 1
Target: Histone acetyltransferase KAT6A, winged helix 2, GST fusion (KAT6A, Homo sapiens, UniProt Q92794, residues 85-181)
Technique: protein binding microarray
Form: double-stranded DNA, one strand shown
Matrix: in vitro
Tested at: not given
Notes: 8-mer, flanks averaged, mean of 2 arrays, mostly near background
Reference: not given
Reading: higher = stronger binding
Target sequence (chain): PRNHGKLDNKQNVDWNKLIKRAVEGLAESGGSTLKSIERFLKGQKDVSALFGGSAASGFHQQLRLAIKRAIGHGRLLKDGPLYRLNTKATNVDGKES
| Sequence | E-score |
| --- | --- |
| ACTGAGCC | 0.13 |
| GAAGATAC | 0.0038 |
| GCGACCCA | 0.145 |
| CGTGATGA | -0.144 |
| CAGGGATG | 0.0602 |
| ATGACCGA | 0.0116 |
| GAATGCTA | -0.0618 |
| GCAAACTA | 0.095 |
| CACAAAAG | 0.26 |
| ACCTTCAT | -0.0179 |
| CCCGACTC | 0.15 |
| GGGCAAAA | 0.107 |
| ATAACTCC | -0.135 |
| CAGTGGAA | 0.0292 |
| ACTAAGCG | -0.115 |
| CACCATCC | -0.233 |
| TACCAACA | 0.0292 |
| CGAATGTA | -0.15 |
| CCTACTTC | 0.0687 |
| ACTTTTCA | -0.219 |
| AATGGATC | -0.0596 |
| AATATGCA | -0.0211 |
| CAGCTCAG | -0.0309 |
| GTATTTCA | -0.0148 |
| CCAAAACG | 0.0625 |

Sample 2
Target: Sal-like protein 4, full length isoform A (SALL4, Homo sapiens, UniProt Q9UJQ4, residues 1-1053)
UniProt Q9UJQ4, sequence (whole entry, looked up): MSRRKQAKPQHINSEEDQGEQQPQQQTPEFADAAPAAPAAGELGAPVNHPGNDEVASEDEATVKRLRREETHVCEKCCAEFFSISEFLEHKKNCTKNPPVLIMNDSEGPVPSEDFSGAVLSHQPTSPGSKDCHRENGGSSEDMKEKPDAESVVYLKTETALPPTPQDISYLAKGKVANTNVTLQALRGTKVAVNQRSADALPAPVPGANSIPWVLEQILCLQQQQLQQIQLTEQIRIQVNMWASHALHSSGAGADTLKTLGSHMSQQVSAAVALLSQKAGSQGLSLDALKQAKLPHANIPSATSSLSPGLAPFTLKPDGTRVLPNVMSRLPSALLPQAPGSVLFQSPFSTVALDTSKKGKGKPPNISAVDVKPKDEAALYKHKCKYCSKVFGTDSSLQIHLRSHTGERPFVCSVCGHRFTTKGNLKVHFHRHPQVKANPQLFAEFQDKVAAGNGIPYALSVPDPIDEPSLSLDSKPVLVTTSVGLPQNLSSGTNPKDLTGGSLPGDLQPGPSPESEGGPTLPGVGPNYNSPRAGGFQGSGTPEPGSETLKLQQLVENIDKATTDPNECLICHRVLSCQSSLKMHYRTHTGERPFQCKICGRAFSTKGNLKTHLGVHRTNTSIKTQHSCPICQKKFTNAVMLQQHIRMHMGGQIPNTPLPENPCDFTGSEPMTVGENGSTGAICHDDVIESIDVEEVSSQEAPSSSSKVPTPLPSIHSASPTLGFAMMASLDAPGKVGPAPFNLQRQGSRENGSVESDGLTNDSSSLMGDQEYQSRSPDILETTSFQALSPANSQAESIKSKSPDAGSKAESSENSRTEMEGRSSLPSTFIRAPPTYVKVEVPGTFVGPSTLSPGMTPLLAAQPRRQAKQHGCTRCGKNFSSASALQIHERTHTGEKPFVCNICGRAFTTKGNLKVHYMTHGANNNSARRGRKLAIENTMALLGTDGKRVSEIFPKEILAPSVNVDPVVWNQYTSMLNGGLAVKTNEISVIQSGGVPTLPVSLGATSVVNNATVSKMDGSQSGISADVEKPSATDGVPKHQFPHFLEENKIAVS
Technique: universal PBM
Form: double-stranded DNA, one strand shown
Matrix: in vitro
Tested at: 600 nM
Notes: 8-mer, flanks averaged, mean of replicates
Reading: higher = stronger binding
| Sequence | E-score |
| --- | --- |
| CCAATGAA | -0.0921 |
| GCAACCCC | -0.293 |
| AGACTTCG | -0.0357 |
| CATAGCTA | 0.0699 |
| GATAACCA | 0.0565 |
| AGGGCTAA | -0.0238 |
| GAAACGGA | 0.0823 |
| ACTCAAAA | 0.182 |
| GGAACCCA | -0.292 |
| GAGCACCC | -0.348 |
| CAGTTCAG | -0.167 |
| CCGCCAAA | -0.0967 |
| AGGGAATA | 0.162 |
| CGCAATAA | 0.145 |
| GTCGGAAC | -0.217 |
| ACTGAATG | 0.138 |
| AATCTGGC | -0.0511 |
| ACGCCAGC | -0.381 |
| AGGGCGTA | -0.0875 |
| AGACTGTG | 0.00239 |
| GCTCGATA | 0.00375 |
| AAGACAGT | -0.0616 |
| ATAGGACG | -0.00125 |
| GCGAGGAA | -0.0541 |
| GGACGAAA | -0.098 |

Sample 3
Target: Interferon regulatory factor 7, full length, phosphomimetic (IRF7, Homo sapiens, UniProt Q92985, residues 1-503, S101K/S471D/S472D/S475D/S476D/S477D/S483D/S484D/S487D)
Technique: protein-binding microarray
Form: double-stranded DNA, one strand shown
Matrix: in vitro
Tested at: 250 nM
Notes: 60-bp whole probe
With: salmon DNA 0.4 mg/ml
Reference: random background probes
Reading: higher = stronger binding
Shared flanks, not repeated: GCCTAGCAC … GTCTTGATTCGCTTGACGCTGCTG
Residues (chain): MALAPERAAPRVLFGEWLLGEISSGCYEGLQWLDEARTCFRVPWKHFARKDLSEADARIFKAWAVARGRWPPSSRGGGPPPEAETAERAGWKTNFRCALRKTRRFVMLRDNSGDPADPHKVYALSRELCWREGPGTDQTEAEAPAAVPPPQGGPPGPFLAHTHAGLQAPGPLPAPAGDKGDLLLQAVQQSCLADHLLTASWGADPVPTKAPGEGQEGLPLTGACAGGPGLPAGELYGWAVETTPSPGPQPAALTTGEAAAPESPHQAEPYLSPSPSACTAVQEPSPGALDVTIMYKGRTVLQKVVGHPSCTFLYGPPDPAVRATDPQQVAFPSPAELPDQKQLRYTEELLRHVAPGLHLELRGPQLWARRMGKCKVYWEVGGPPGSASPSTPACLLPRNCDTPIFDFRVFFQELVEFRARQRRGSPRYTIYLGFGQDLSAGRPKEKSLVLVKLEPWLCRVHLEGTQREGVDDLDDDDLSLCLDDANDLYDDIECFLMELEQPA
| Sequence | log fluorescence |
| --- | --- |
| TATGTTCCTTTAGCACTTTGGTGCTAG | 0.843 z-score |
| TTAGGACTGGGGTATCGGATAGTGCTA | -0.363 z-score |
| TTAGATTTAGGGACTGGATTAGTGCTA | -0.0731 z-score |
| TCAAGTTTACCCATCTCACTGTGCTAG | 0.706 z-score |
| AAGCTTCTGGTCTTCTGGACGTGCTAG | -0.325 z-score |
| TCAGTTTTGTGTGTGTGACTGTGCTAG | 0.38 z-score |
| TTAGGACTGCTACGGCTTTAGTGCTAG | -0.564 z-score |
| TTAGATTTAAGTTTCGATTAGTGCTAG | 8.51 z-score |
| GACGGACTGGGTTACGGGACGTGCTAG | -0.286 z-score |
| GACGGTTTCGGTCTCGTGACGTGCTAG | 7.96 z-score |
| AGTATGAGTTGCCCTTTCCCGTGCTAG | 0.122 z-score |
| GACGGTTTCGACACTGGGGGCGTGCTA | 4.94 z-score |
| TCAAGTCCCAAGAATGGTACTGTGCTA | 0.47 z-score |
| GACGACCTGAGTTTCGAGACGTGCTAG | 3.45 z-score |
| TTAGGTTTCGGGTTTCAGTTAGTGCTA | 11.8 z-score |
| GACGATTTCAGGATCGAGACGTGCTAG | 0.367 z-score |
| TTAGATCTCAGTTTCGATCAGTGCTAG | 3.81 z-score |
| TCATTTTAAGTTCTCTGACTGTGCTAG | 1.09 z-score |
| TTAGGTCTCCTAGTGCTTTAGTGCTAG | -0.224 z-score |
| TTAGATTTCAGTCTCGACTAGTGCTAG | 0.86 z-score |
| TTCGGACTGGGTATCGGTTAGTGCTAG | 0.223 z-score |
| TTAGGACTGGTCACTGGGTTAGTGCTA | -0.44 z-score |
| TTAGACTTCAGTTTCGATTAGTGCTAG | 8.56 z-score |
| CACTCTCAGAATCTCTCATGGTGCTAG | 0.391 z-score |
| GACGATTTCCGGACTGGAGACGTGCTA | 0.0779 z-score |

Sample 4
Target: PABPC1L2, full length, GST fusion (mouse, UniProt A0ABA7IW68)
Technique: RNAcompete
Form: RNA
Matrix: in vitro
Tested at: 20 nM
Notes: 7-mer, probes averaged, single round
Reference: mean of 7-mers
Reading: higher = stronger binding
Residues (chain): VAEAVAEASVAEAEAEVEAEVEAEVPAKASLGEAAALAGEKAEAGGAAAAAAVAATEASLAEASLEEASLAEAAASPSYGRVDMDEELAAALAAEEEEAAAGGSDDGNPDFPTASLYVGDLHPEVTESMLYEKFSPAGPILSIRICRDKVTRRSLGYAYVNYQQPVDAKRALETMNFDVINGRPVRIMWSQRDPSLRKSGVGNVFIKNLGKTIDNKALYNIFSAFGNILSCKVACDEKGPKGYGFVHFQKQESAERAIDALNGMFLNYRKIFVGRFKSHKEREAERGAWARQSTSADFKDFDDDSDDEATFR
| Sequence | 7-mer Z-score |
| --- | --- |
| GGAGUGU | -0.0573 |
| UUCCCUG | -0.481 |
| UUGAUGA | -0.18 |
| UCCAGCC | -0.414 |
| AUUCACU | -0.157 |
| AUUACAU | -0.0047 |
| ACCAACU | -0.0808 |
| CUUUUAC | 0.075 |
| GGGUAUA | 0.16 |

Sample 5
Target: CCNF, cyclin fold, Cln2 fusion (human)
Technique: yeast growth competition, sequencing
Matrix: yeast
Notes: strong parent motif
Reference: not given
Reading: higher = stronger binding
Parent: DBF4B docking peptide (human); LGYLYLLLTQSLW; partner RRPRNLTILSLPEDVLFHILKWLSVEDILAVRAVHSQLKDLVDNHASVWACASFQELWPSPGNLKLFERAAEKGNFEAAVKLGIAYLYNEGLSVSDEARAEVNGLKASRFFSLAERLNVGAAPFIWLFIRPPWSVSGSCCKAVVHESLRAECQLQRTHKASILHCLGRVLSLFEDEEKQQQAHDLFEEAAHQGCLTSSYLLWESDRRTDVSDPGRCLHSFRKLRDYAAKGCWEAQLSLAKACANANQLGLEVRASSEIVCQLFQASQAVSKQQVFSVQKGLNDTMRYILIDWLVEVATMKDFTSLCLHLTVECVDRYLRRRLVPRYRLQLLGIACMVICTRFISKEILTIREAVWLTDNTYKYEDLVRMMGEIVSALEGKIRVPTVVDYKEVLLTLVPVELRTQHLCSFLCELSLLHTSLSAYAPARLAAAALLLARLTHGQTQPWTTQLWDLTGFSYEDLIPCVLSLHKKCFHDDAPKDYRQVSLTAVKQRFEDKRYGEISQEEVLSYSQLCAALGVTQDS
| Variant | normalised enrichment score |
| --- | --- |
| LGYLYLLLTQALW [S11A] | 1.94 |
| LAYLYLLLTQSLW [G2A] | 1.9 |
| LGYLYLLLTQSLA [W13A] | 1.57 |
| LGYAYLLLTQSLW [L4A] | 2.14 |
| LGYLYLLLTQSAW [L12A] | 1.84 |
| LGYLYALLTQSLW [L6A] | 2.01 |
| LGYLYLLATQSLW [L8A] | 2.11 |

Sample 6
Target: RNA binding protein fox-1 homolog 2, RRM domain, GST-SBP tag (RBFOX2, Homo sapiens, UniProt O43251-10, residues 100-194)
Technique: RNA Bind-n-Seq
Form: RNA
Matrix: in vitro
Tested at: 365 nM
Notes: natural RNA segment, single round, ends assumed
Reference: no-protein control
Reading: higher = stronger binding
Shared flanks, not repeated: GGGAGUUCUACAGUCCGACGAUC … UGGAAUUCUCGGGUGCCAA
Construct (chain): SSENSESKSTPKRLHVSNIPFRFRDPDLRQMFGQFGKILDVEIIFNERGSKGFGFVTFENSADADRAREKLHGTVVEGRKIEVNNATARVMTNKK
| Sequence | RBNS enrichment (R) |
| --- | --- |
| GCCCACCCUGGAAACUGUUCCCCCUCCCCGAAUCUGGCUAAACAGCUGGCUGUAAUGCCUUAUCUCUUCUGGAAAGACGCUGGCUCAGACCGUGGAUUUGGCUUAGCACU | 0.419 |
| UCCUUGCUCCUCCCAGUCCUGCACUGGCAUGAGUUCGGGUGUAGGAGGACAUGACUCCAAGGUGCUGGGAGAUGCACCAGUCUUGCGCAGCAGCACCUGUGGUCUGGCCU | 2.81 |
| UUGAGUGAUGGUGUUUCAAAUCCUGUAGUCCUAUGGUGGCUUUCCUUGCCUGUUACUUUAGAGAUCUAGCCACUAGGCAGUCGCUUCUAAGAAAAUUAUUGAUGAAGUGG | 0.75 |
| GAUGUUCAGUGGUCGUUUUUCAUUUUAAGUAAUUUUUGUUUUGGCAUUUUUUUGUGUGAAGUAAAUUAAUCAACUAGAGAGGUGCAAAACGUUCUCAGUUGAUAUCUGAG | 0.859 |
| GCAAAUUAUAAAAGUAAACAGGUUUUUUUGUUUGGUUUUUCAAUCAUAGCAAUCGGAAUUAUUUUAAAUUCAAAAAUUGAUGCCCUCCCAAACCCCCCAAAGUAAAAAUU | 0.518 |
| UGAAGUUUGUCCUAGUUUACAUCUUAGAGAGGGGAGUAUACUUGUGUUUGUUUCAUGUGCCUGAAUAUCUUAAGCCACUUUCUGCAAAAGCUGUUUCUUACAGAUGAAGU | 1.27 |
| ACUGAGUAGCUGGCCACGGAGGCUUGCUCAUGGAGGUCUCCAUCCCCAACAUCCAGAGGCCAGAAGAAUUGGCAGCUGCCUACUUAAGGAAGCUUGGGUUUGAAGCCUGC | 0.483 |
| UCUUCAGGAGUGUGCUUAUGUCUGUAAAUUGCUGGAGAGGGGGUAGAUGGGCCAGGACAACCAGCAAGACACCUGUUGGGAAGCACCGGGUAUAGAAUCAUAUUUGGUGU | 0.706 |
| UACCUGCCUGGUGAGAACUCCUGCCCCUGCCUACAAAGGGUACACAACCUACCCAUCAUCCCUAGUGUGUCCCGUCUCCUCCUGCCACCUGUCUGUAUUAUUCUGACCCA | 1.06 |
| UGAAUAAUUAUUUUUUAAAAAACUUUGUUGUCUCUGUUCUGAGUCUGAAUUCCUUGCAGAUGGUAGCAUUGUCUACCAGUUGGUUCAGUCUCCAUAGGACUUUCAUAUCA | 0.367 |
| GGCAGGAUCUGCUACAAGGGUAAAGCUGGCCCUUGGAACUACAAUCCUGAGGAAGUCCGAGCUGUCCUGGAAAAGCUUUGCACUCCACCUAGACACGUGCCUCAGCUCUA | 0.374 |
| GGAGUCUGCCACUUGUCAAAGAAGGUGCUGAUCCUAAGAAUUUUUCAUUCUCAGAAUUCGGUGUGCUGCCAACUUGAUGUUCCACCUGCCACAAACCACCAGGACUGAAA | 0.328 |

Excerpt of the above (sample 2):
| Sequence | E-score |
| --- | --- |
| AGACTTCG | -0.0357 |
| CATAGCTA | 0.0699 |
| GATAACCA | 0.0565 |
| AGGGCTAA | -0.0238 |
| GAAACGGA | 0.0823 |
| ACTCAAAA | 0.182 |
| GGAACCCA | -0.292 |
| GAGCACCC | -0.348 |
| CAGTTCAG | -0.167 |
| CCGCCAAA | -0.0967 |
| AGGGAATA | 0.162 |
| CGCAATAA | 0.145 |
| GTCGGAAC | -0.217 |
| ACTGAATG | 0.138 |
| AATCTGGC | -0.0511 |
| ACGCCAGC | -0.381 |
